# Measured values gathered from unrelated publications.
# Lines come from different studies, so protocols differ. “And” joins repeats or separate records; there may be more than shown.
SMILES,test,test system,conditions,how to read,measurement,value
CC[C@H](C)[C@H](NC(=O)[C@@H](NC(=O)[C@H](CCCCN)NC(=O)[C@@H](NC(=O)CNC(=O)[C@@H](N)CCCNC(=N)N)[C@@H](C)O)C(C)C)C(=O)N[C@@H](CC(C)C)C(=O)N[C@@H](Cc1c[nH]cn1)C(=O)N[C@@H](CC(C)C)C(N)=O,LC-MS,pronase digest,"200 µM, 2 h, pH 7.5, 37 °C, with: pronase 2.5 µg/mL",,remaining intact peptide,0%
CC(C)[C@@H]1NC(=O)CNC(=O)[C@H](CC(N)=O)NC(=O)[C@H](CCCNC(=N)N)NC(=O)[C@H](Cc2ccc(O)cc2)NC(=O)[C@H](C(C)C)NC(=O)[C@@H](NC(=O)[C@@H](NC(=O)[C@H](CC(N)=O)NC(=O)[C@H](Cc2c[nH]c3ccccc23)NC(=O)[C@H](C)NC(=O)[C@H](Cc2ccccc2)NC(=O)CNC(=O)[C@H](CCCCN)NC(=O)[C@H](Cc2ccccc2)NC(=O)[C@H](Cc2ccccc2)NC(=O)[C@H](CCCCN)NC(=O)OCC2c3ccccc3-c3ccccc32)C(C)C)CSSC[C@@H](C(=O)N[C@@H](Cc2c[nH]cn2)C(=O)N[C@@H](CCCNC(=N)N)C(=O)N[C@@H](CCCNC(=N)N)C(=O)N[C@@H](C)C(=O)N[C@@H](CC(N)=O)C(N)=O)NC(=O)[C@H](C(C)C)NC(=O)[C@H](CCCNC(=N)N)NC1=O,HPLC,mouse kidney homogenate,"2560 µM, 2.00 h, 37 °C, 50 mg/mL tissue",,remaining peptide,78.4% and 82.2%
CSCC[C@H](NC(=O)[C@H](CCCNC(=N)N)NC(=O)[C@H](CCCNC(=N)N)NC(=O)[C@H](CCCCN)NC(=O)[C@H](C)NC(=O)[C@H](CCCNC(=N)N)NC(=O)CNC(=O)[C@@H](N)[C@@H](C)O)C(=O)N[C@@H](CCC(N)=O)C(=O)N[C@@H](Cc1ccc(O)cc1)C(=O)N[C@@H](CC(N)=O)C(=O)N[C@@H](CCCNC(=N)N)C(=O)N[C@@H](CCCNC(=N)N)C(N)=O,HPLC peak area,50% human serum,"100 µM, 24 h, pH 7.4, 37 °C",baseline: 0 h,remaining peptide,5.4% and 4.09% and 6.6%
C=CCN1CCC23c4c5ccc(OC(=O)c6ccc(N)cc6)c4OC2C(=O)CCC3(O)C1C5 (stereo not shown),,human plasma,4 h,,remaining compound,88.9% and 88.3% and 88.8%
C#Cc1c(F)ccc2cc(O)cc(-c3ncc4c(N5CC6CCC(C5)N6C(=O)OC(C)OC(=O)c5cccnc5)nc(OC[C@@]56CCCN5C[C@H](F)C6)nc4c3F)c12 (stereo partly shown),,simulated gastric fluid,"1 µM, 30 min, 37 °C",,remaining prodrug,97.3%
CC[C@H](C)[C@H](NC(=O)[C@H](CCC(N)=O)NC(=O)[C@@H](NC(=O)[C@@H]1CCCN1[C@@H]1CN(C(=O)[C@H](CCCCN)NC(=O)[C@H](CC(N)=O)NC(=O)[C@@H](NC(=O)[C@@H](NC(=O)[C@H](CCC(N)=O)NC(=O)[C@@H](N)C(C)C)[C@@H](C)CC)[C@@H](C)CC)CC[C@H]1NS(=O)(=O)c1ccc(C)cc1)C(C)C)C(=O)N[C@H](C(=O)N[C@@H](Cc1ccc(O)cc1)C(=O)N[C@@H](CCCCN)C(N)=O)C(C)C,LC-MS,pronase digest,"200 µM, 10 min, pH 7.5, 37 °C, with: pronase 2.5 µg/mL",,remaining intact peptide,87%
C=CCN1CCC23c4c5ccc(OC(=O)c6ccc(NC(=O)OC(C)(C)C)cc6)c4OC2C(=O)CCC3(O)C1C5 (stereo not shown),,rat plasma,"0 h, no inhibitor",,remaining compound,95.8% and 104% and 100%
C#Cc1c(F)ccc2cc(O)cc(-c3ncc4c(N5CC6CCC(C5)N6C(=O)OC(C)OC(=O)C(CCCC)CCCCCC)nc(OC[C@@]56CCCN5C[C@H](F)C6)nc4c3F)c12 (stereo partly shown),,simulated gastric fluid,"1 µM, 30 min, 37 °C",,remaining prodrug,107%
Cc1nnc(-c2ccc(CC(=O)NCCCC[C@H](NC(=O)c3ccc(OCc4ccc(B(O)O)cc4)c(-c4nc5ccccc5c(=O)[nH]4)c3)C(=O)NCC(=O)NCC(=O)NCC(=O)N[C@@H](Cc3ccccc3)C(=O)N[C@@H](Cc3ccccc3)C(=O)O)cc2)nn1,UPLC-MS/MS,human serum,"100 µM, 1.5 h, 37 °C",,remaining compound,89.6%
C=CCN1CCC23c4c5ccc(OC(=O)c6ccccc6)c4OC2C(=O)CCC3(O)C1C5 (stereo not shown),,rat plasma,"0 h, with: digitonin 100 µM",,remaining compound,90.1% and 95.8% and 114%

# For quick reference, copied from above:
SMILES,test,test system,conditions,how to read,measurement,value
C=CCN1CCC23c4c5ccc(OC(=O)c6ccc(N)cc6)c4OC2C(=O)CCC3(O)C1C5 (stereo not shown),,human plasma,4 h,,remaining compound,88.9% and 88.3% and 88.8%
